Published values of several laboratories.
Each numbered part is a random draw from the data of one study; scales do not carry over between parts.
Sequence of UniProt Q9UL54 (whole entry, looked up): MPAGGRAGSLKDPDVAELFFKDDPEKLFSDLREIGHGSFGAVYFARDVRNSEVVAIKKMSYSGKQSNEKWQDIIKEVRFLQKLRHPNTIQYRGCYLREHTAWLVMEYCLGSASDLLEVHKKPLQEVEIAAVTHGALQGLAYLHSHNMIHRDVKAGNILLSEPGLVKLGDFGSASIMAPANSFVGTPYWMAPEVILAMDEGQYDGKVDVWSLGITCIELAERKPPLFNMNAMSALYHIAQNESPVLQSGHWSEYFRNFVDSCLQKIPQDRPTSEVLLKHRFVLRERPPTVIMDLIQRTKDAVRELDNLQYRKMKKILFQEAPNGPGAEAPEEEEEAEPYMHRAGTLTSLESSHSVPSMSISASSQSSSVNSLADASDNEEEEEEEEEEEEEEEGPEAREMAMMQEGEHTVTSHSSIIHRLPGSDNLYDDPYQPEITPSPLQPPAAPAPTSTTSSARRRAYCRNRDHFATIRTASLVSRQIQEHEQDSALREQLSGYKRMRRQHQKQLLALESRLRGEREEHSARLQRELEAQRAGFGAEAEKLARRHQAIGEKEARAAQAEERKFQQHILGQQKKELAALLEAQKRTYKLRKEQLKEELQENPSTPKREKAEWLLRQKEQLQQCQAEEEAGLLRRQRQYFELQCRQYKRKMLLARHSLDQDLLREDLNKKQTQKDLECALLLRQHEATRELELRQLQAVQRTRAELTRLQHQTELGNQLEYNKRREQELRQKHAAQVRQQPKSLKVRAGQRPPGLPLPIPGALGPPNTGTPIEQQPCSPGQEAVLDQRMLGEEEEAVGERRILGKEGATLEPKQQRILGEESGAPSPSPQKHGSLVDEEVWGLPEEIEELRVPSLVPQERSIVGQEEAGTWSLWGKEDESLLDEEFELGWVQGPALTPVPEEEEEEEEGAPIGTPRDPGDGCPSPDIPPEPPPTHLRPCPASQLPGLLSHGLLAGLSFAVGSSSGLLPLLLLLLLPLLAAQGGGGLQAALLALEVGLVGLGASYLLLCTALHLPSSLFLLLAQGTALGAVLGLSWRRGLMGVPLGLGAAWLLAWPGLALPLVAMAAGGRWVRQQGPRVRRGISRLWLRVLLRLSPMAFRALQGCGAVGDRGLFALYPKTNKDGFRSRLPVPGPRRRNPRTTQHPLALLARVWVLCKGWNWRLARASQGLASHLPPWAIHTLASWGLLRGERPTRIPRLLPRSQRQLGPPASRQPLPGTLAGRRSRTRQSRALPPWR
Sequence of UniProt Q9UKI8 (whole entry, looked up): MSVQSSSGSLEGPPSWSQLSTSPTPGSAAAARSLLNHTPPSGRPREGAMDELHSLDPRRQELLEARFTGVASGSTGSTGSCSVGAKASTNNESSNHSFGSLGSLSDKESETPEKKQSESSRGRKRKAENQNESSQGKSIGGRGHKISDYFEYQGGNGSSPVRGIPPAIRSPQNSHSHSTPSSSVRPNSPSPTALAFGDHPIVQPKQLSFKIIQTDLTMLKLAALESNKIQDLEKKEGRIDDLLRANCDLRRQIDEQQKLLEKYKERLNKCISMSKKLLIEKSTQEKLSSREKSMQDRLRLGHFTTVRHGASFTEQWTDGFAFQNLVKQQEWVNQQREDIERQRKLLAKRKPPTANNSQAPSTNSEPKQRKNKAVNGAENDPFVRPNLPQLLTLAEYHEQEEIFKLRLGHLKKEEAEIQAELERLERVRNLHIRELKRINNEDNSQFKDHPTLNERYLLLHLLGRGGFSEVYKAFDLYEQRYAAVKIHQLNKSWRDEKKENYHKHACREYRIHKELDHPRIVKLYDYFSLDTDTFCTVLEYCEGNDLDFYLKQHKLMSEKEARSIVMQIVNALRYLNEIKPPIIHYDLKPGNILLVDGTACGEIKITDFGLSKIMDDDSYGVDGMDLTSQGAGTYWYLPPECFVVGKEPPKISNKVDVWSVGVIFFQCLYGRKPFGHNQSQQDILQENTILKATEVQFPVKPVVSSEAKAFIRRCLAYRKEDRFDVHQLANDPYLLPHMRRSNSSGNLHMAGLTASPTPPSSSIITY
Sequence of UniProt Q8N5S9 (whole entry, looked up): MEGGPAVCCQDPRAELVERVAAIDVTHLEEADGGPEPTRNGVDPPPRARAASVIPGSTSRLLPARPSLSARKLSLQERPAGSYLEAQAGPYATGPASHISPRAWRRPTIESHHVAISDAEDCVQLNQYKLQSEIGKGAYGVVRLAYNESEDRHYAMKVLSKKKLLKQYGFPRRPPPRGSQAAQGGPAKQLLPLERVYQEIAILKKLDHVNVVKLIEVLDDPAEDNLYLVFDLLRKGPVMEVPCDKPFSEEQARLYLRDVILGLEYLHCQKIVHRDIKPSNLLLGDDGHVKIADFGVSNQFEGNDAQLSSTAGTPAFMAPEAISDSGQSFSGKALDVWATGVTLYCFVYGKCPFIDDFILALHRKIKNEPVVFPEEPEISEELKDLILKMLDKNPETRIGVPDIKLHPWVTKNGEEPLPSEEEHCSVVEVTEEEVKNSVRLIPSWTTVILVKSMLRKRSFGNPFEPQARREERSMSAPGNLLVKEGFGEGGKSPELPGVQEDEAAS
Sequence of UniProt P29320 (whole entry, looked up): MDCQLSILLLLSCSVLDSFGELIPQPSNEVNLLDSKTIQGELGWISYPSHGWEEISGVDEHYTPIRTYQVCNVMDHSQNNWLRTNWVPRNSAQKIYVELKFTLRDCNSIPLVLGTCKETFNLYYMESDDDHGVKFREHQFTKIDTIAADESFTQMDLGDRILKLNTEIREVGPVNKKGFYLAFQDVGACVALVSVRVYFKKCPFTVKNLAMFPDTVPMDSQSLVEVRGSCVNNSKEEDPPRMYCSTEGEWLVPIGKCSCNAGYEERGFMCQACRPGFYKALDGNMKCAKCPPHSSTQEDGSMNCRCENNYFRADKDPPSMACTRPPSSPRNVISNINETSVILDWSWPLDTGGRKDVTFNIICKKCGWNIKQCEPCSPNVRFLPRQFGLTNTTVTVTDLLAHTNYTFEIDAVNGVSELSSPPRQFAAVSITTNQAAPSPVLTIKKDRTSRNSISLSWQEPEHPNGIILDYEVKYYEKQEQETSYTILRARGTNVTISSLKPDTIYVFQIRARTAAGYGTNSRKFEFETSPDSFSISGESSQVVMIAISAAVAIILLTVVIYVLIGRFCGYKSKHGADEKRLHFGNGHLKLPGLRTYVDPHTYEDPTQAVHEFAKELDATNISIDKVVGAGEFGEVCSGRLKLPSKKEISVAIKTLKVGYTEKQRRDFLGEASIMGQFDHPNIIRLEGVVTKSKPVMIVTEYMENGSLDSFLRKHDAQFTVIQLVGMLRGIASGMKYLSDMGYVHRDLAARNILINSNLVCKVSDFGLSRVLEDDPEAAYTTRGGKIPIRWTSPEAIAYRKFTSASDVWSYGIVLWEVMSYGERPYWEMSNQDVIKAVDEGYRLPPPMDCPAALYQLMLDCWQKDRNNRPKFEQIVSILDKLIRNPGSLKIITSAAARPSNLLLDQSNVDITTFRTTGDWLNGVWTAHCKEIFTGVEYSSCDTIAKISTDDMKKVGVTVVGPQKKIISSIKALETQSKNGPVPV
Sequence of UniProt O95819 (whole entry, looked up): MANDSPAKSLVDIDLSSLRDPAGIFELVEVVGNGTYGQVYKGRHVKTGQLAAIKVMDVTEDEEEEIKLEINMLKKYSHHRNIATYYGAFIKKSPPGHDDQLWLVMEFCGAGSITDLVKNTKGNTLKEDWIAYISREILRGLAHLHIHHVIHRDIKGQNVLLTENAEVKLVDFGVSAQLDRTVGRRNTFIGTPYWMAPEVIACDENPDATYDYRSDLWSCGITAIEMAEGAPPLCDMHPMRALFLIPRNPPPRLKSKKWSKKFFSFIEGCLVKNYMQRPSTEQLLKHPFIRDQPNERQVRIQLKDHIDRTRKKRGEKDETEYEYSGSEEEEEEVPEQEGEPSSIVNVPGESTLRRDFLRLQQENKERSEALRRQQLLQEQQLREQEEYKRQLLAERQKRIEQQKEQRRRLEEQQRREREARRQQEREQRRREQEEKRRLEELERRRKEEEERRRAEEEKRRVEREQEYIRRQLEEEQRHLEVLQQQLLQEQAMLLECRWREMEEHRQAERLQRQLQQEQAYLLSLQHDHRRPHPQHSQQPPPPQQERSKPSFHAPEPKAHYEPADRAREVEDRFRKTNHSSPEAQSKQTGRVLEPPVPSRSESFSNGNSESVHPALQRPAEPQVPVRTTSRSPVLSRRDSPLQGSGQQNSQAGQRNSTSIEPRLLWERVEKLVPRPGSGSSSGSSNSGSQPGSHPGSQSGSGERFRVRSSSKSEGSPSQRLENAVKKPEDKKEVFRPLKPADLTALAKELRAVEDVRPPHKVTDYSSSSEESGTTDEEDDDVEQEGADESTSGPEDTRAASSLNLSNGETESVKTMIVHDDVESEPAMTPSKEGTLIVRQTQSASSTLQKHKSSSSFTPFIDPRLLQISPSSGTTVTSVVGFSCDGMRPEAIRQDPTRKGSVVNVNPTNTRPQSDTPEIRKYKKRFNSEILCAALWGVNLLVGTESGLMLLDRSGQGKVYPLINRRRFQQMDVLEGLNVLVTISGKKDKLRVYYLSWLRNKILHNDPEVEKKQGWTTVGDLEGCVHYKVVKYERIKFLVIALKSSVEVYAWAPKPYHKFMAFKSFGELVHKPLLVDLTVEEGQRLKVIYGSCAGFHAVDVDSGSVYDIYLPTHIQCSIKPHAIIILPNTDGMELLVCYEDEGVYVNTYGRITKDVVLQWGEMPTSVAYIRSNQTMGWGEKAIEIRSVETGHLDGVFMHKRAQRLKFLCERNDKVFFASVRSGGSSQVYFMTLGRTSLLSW

Study 1 — effect on: cell-free assay; technique: competition with immobilised ligand; concentration: 1 µM; endpoint: remaining binding
SMILES: COc1ccc2cc(OCC3(C(=O)O)CN(C(=O)c4ccc(F)cc4)C3)ccc2c1
TIE1 (Homo sapiens, UniProt P35590): 100%
MAP4K4 (Homo sapiens, UniProt O95819): 100%
TLK1 (Homo sapiens, UniProt Q9UKI8): 87%
NEK1 (Homo sapiens, UniProt Q96PY6): 100%
STK26 (Homo sapiens, UniProt Q9P289): 100%
EPHA3 (Homo sapiens, UniProt P29320): 92%
TAOK2 (Homo sapiens, UniProt Q9UL54): 100%
CAMKK1 (Homo sapiens, UniProt Q8N5S9): 91%
MAP2K3 (Homo sapiens, UniProt P46734): 95%
Tyrosine-protein kinase ABL1, phosphorylated (ABL1, Homo sapiens, UniProt P00519, T315I): 84%
PRKD1 (Homo sapiens, UniProt Q15139): 96%
PIM3 (Homo sapiens, UniProt Q86V86): 98%

Study 2 — technique: aptamer microarray, sandwich; form: DNA with 2'F-ANA; matrix: in vitro; concentration: 200 nM; with: Cy3 exosite-II aptamer, 400 nM; direction: higher = stronger binding; endpoint: mean fluorescence intensity; sequence: GGTTGGTGTGGTTGG
Target: Prothrombin, mature alpha-thrombin (F2, Homo sapiens, UniProt P00734)
Setting: whole 15-mer aptamer, many near background
2'F-ANA at 2 3 5 7 8 10 11 12 13 14: 53 a.u.
2'F-ANA at 5 6 13: 54.5 a.u.
2'F-ANA at 1 2 3 4 7 9 10 11 12: 76.6 a.u.
2'F-ANA at 1 2 4 5 6 7 12 13 14: 51.1 a.u.
2'F-ANA at 1 3 4 5 6 9 11 14 15: 68.7 a.u.
2'F-ANA at 1 4 9 11 15: 103 a.u.
2'F-ANA at 2 3 4 10 12 15: 321 a.u.
2'F-ANA at 2 3 5 6 8 9 11 12 13: 125 a.u.

Study 3 — cell line: A-375; concentration: 100 µM; time: 18 h; endpoint: viability
OCc1ccccc1O[C@@H]1O[C@H](CO)[C@@H](O)[C@H](O)[C@H]1O: 104%
Cc1onc(-c2c(Cl)cccc2Cl)c1C(=O)N[C@@H]1C(=O)N2[C@@H]1SC(C)(C)[C@@H]2C(=O)O: 95%
Cc1cc(-c2ccc(/N=N/c3ccc4c(S(=O)(=O)O)cc(S(=O)(=O)O)c(N)c4c3O)c(C)c2)ccc1/N=N/c1ccc2c(S(=O)(=O)O)cc(S(=O)(=O)O)c(N)c2c1O: 109%

Single results of other studies
Cc1c[nH]c(CN2C[C@H]3CC[C@@H]2CN(C(=O)c2ccccc2)C3)c(C)c1=O
remaining compound (mouse, microsomes or S9; 2 µM, 0.5 h): 86.9%

A few entries again (study 1):
TIE1 (Homo sapiens, UniProt P35590): 100%
TLK1 (Homo sapiens, UniProt Q9UKI8): 87%
Tyrosine-protein kinase ABL1, phosphorylated (ABL1, Homo sapiens, UniProt P00519, T315I): 84%
